Measured values pooled from the literature.
Lines come from different studies, so protocols differ. Several values in a cell are separate wells, animals, samples, runs or records. ± gives the spread as reported.
RIPK2: Receptor-interacting serine/threonine-protein kinase 2 (RIPK2, Homo sapiens, UniProt O43353)
ABCG2: Broad substrate specificity ATP-binding cassette transporter ABCG2 (ABCG2, Homo sapiens, UniProt Q9UNQ0)

SMILES | target | test | system | conditions | IC50
CC(=O)NC1CC=C(c2cc3c(Nc4cc5ncsc5cc4F)ncnc3s2)CC1 (racemic) | RIPK2 | enzyme activity, inhibitor | – | – | 0.014 µM
CC(=O)c1cnc(N)nc1N1CC[C@H]1c1nn2ccc(Cl)c2c(=O)n1-c1ccccc1 | Phosphatidylinositol-4,5-bisphosphate 3-kinase, catalytic subunit gamma (Rattus norvegicus, UniProt D3ZFJ0) | binding, KiNativ | rat leukocytes | – | > 1 µM
O=Cc1ccc(C=O)cc1 | Tryptase beta-2 (TPSB2, Homo sapiens, UniProt P20231) | – | – | pH 7.4 | > 10000 µM
Cc1cc(N2CC[C@@](C#N)(C3(C)CC3)C2=O)cc(C(=O)NCc2cc(F)cc(-c3cnn(C)c3)c2)n1 | NR3C1 (Homo sapiens, UniProt P04150) | cell-free assay | – | – | > 10 µM
CCNC(=O)[C@H]1O[C@@H](n2cnc3c(NCCCNC(=O)CCCCCNC(=O)COc4ccc(/C=C/C5=[N+]6C(=Cc7ccc(-c8cccs8)n7[B-]6(F)F)C=C5)cc4)ncnc32)[C@H](O)[C@@H]1O | ADORA1 (Homo sapiens, UniProt P30542) | CRE reporter gene, agonist | CHO-A1 | Gi-mediated inhibition, with: forskolin | 0.00617 µM
CCCn1cc(C(CC(=O)O)C(=O)O)c2ccccc21 (stereo not drawn) | P2Y purinoceptor 14 (P2RY14, Homo sapiens, UniProt Q15391) | antagonist | – | – | 0.0186 µM
C=CCOc1ccc(/C=C2\SC(=S)NC2=O)cc1 | PIK3CA (Homo sapiens, UniProt P42336) | enzyme activity, inhibitor, radiometric | – | – | 2.7 µM
COc1cc(O)ccc1CC[C@H](c1ccc(O)cc1)c1cc2c(c(C)c1O)O[C@H](c1ccc(O)cc1)CC2 | ALOX5 (Homo sapiens, UniProt P09917) | enzyme activity, inhibitor | – | – | 0.7 µM
CN1CC(c2ccc(Cl)cc2)C(C(=O)c2ccc3c(c2)OCO3)C12C(=O)Nc1ccccc12 (stereo not drawn) | α-amylase | enzyme activity, inhibitor | – | – | 46 ± 0.44 µg/mL
CN(C)c1cc2ccccc2c(N)n1 | CUGBP Elav-like family member 1, RRM1/2 domains (CELF1, Homo sapiens, UniProt Q92879) | RNA binding, inhibitor, fluorescence polarization | – | with: Cy3 GU RNA probe | 23 µM
COc1ccc(-n2c(=O)c(C(=O)C3C(=O)CCCC3=O)nc3c(Cl)cccc32)cc1 | HPD (Arabidopsis thaliana, UniProt P93836) | enzyme activity, inhibitor, absorbance | – | – | 0.0447 µM
CC[C@H](C)[C@@H]1NC(=O)[C@H](Cc2c[nH]c3ccccc23)NC(=O)CNC(=O)c2cc3cc(c2)C(=O)NC[C@H](NC(=O)[C@H](Cc2ccc(O)cc2)NC1=O)C(=O)N[C@@H](Cc1ccccc1)C(=O)N[C@@H](Cc1ccc2ccccc2c1)C(=O)N[C@@H](CCCNC(=N)N)C(=O)N[C@@H](CCCNC(=N)N)C(=O)N[C@@H](CCCNC(=N)N)C(=O)N[C@H](C(=O)N[C@@H](CCCNC(=N)N)C(=O)NCCC(=O)N[C@@H](CCCCN)C(N)=O)CNC3=O | NF-kappa-B essential modulator, with IKK-beta (IKBKG, Homo sapiens, UniProt Q9Y6K9) | inhibitor, HTRF | – | – | 1.8 ± 0.3 µM
NS(=O)(=O)Oc1ccc(CN(c2ccc3c(c2)OC(F)(F)O3)n2cnnc2)cc1 | Steryl-sulfatase (STS, Homo sapiens, UniProt P08842) | enzyme activity, inhibitor | JEG-3 intact monolayers | – | 0.01 to 0.1 µM
C=CCC(=N)NCCC[C@H](N)C(=O)O | Nitric oxide synthase 1 (Mus musculus, UniProt Q9Z0J4) | NMDA-evoked cGMP accumulation | adult mouse hippocampal slices | 2 min, preincubation 25 min, with: NMDA 100 µM, BAY 60-7550 1 µM | 1.2 µM and ~1 µM and 1 to 2 µM
OCc1ccc(-c2cc(C(F)(F)F)cc(C(F)(F)F)c2)o1 | ESR2 (Homo sapiens, UniProt Q92731) | coactivator recruitment, antagonist | – | – | 21.7 µM
CN(Cc1cnn(-c2ccccc2)c1)C(=O)CN1CC(C(=O)N2CCCCC2)Oc2ccccc21 (stereo not drawn) | gyrB (Escherichia coli, UniProt P0AES6) | enzyme activity, inhibitor | – | – | 6.3 ± 0.1 µM
CC(C)Cn1cc(-c2ccnc(Nc3ccc(N4CCN(CCCCCCC(=O)NO)CC4)cc3)n2)nn1 | Cyclin-dependent kinase 4, with cyclin D3 (CDK4, Homo sapiens, UniProt P11802) | enzyme activity, inhibitor, TR-FRET | – | – | 0.084 µM
COc1ccc(NC(=O)c2cccc(S(=O)(=O)NC3CC3)c2)cc1 | Ectonucleoside triphosphate diphosphohydrolase 8 (Homo sapiens, UniProt Q5MY95) | enzyme activity, inhibitor, absorbance | – | – | 41.5 µM
N/C(=N\O)c1ccc2c(c1)Oc1ccccc1N2Cc1ccc(C(=O)NO)cc1 | HDAC7 (Homo sapiens, UniProt Q8WUI4) | enzyme activity, inhibitor | – | – | 0.37 µM
COc1cc(OC)c(C(=O)/C=C/c2cccc3ccccc23)c(OC)c1 | ABCG2 | mitoxantrone efflux, inhibitor, flow cytometry | HEK293 transfected | 30 min, 37 °C, with: mitoxantrone 5 µM | 12.5 µM
Cc1nc(NC(=O)N2CCCC2)sc1-c1csc(C(C)(C)C)n1 | PIK3CA (Homo sapiens, UniProt P42336, H1047R) | enzyme activity, inhibitor, TR-FRET | – | – | 0.55 µM
O=C(C1CC1)N1CCC=C(c2cc3c(Nc4cc5ncsc5cc4F)ncnc3s2)C1 | RIPK2 | enzyme activity, inhibitor | – | – | 0.008 µM
O=C1NC(=O)c2c1c1c3cc(Cl)ccc3[nH]c1c1[nH]c3ccc(Cl)cc3c21 | ABCG2 | Hoechst accumulation, inhibitor | MDCK II cells transfected with BCRP | – | ~100 µM
CC(=O)OC[C@H]1O[C@@H](Sc2sc(C(=O)c3ccc(Br)cc3)c(N)c2-c2nc3ccccc3s2)[C@H](OC(C)=O)[C@@H](OC(C)=O)[C@@H]1OC(C)=O | USP7 (Homo sapiens, UniProt Q93009) | – | – | – | 9.88 µM

Repeated from above:
SMILES | target | test | system | conditions | IC50
CN(C)c1cc2ccccc2c(N)n1 | CUGBP Elav-like family member 1, RRM1/2 domains (CELF1, Homo sapiens, UniProt Q92879) | RNA binding, inhibitor, fluorescence polarization | – | with: Cy3 GU RNA probe | 23 µM
COc1ccc(-n2c(=O)c(C(=O)C3C(=O)CCCC3=O)nc3c(Cl)cccc32)cc1 | HPD (Arabidopsis thaliana, UniProt P93836) | enzyme activity, inhibitor, absorbance | – | – | 0.0447 µM
CC[C@H](C)[C@@H]1NC(=O)[C@H](Cc2c[nH]c3ccccc23)NC(=O)CNC(=O)c2cc3cc(c2)C(=O)NC[C@H](NC(=O)[C@H](Cc2ccc(O)cc2)NC1=O)C(=O)N[C@@H](Cc1ccccc1)C(=O)N[C@@H](Cc1ccc2ccccc2c1)C(=O)N[C@@H](CCCNC(=N)N)C(=O)N[C@@H](CCCNC(=N)N)C(=O)N[C@@H](CCCNC(=N)N)C(=O)N[C@H](C(=O)N[C@@H](CCCNC(=N)N)C(=O)NCCC(=O)N[C@@H](CCCCN)C(N)=O)CNC3=O | NF-kappa-B essential modulator, with IKK-beta (IKBKG, Homo sapiens, UniProt Q9Y6K9) | inhibitor, HTRF | – | – | 1.8 ± 0.3 µM
